Results pooled from the literature.
Every numbered part comes from another study and shows a few of its results, in no order.

Set 1 — method: protein-binding microarray; form: hairpin DNA; sample: in vitro; concentration: not given; reference: not given; direction: higher = stronger binding
Target: Microphthalmia-associated transcription factor, full length (MITF, Homo sapiens, UniProt O75030-10, residues 1-413)
Setting: whole hairpin DNA, median over replicate spots
`CACTTAGCCGGTGATTTTGGTCCTCCAAAATCACCGGCTAAGTGACACTC (5mC at 9 35)` gave a median fluorescence of 4300 a.u.
`CACTTAGCACGTGCGTTTGGTCCTCCAAACGCACGTGCTAAGTGACACTC (5mC at 14)` gave a median fluorescence of 18600 a.u.
For `GAGGCCGAGCACGTGCTGCCTCCTGGCAGCACGTGCTCGGCCTCACACTC`, the median fluorescence was 25600 a.u.
For `CACTTAGCAGGTGATTTTGGTCCTCCAAAATCACCTGCTAAGTGACACTC`, the median fluorescence was 9670 a.u.
The median fluorescence of `GAGGCCTAGCACGCGCTGCCTCCTGGCAGCGCGTGCTAGGCCTCACACTC (5mC at 14 30)` is reported as 11000 a.u.
For `CACTCGGCACGTGATTTTGGTCCTCCAAAATCACGTGCCGAGTGACACTC (5mC at 39)`, the median fluorescence was 27000 a.u.
With `GAGGCCTGGCACGTGCTGCCTCCTGGCAGCACGTGCCAGGCCTCACACTC` the median fluorescence was 23800 a.u.
`CACTTAGCACGTCATTTTGGTCCTCCAAAATGACGTGCTAAGTGACACTC (5mC at 13)` has a median fluorescence of 4450 a.u.

Set 2 — method: RNAcompete; form: RNA; sample: in vitro; concentration: 20 nM; setting: 7-mer, probes averaged, single round; reference: mean of 7-mers; direction: higher = stronger binding
Target: PABPC1L2, full length, GST fusion (mouse, UniProt A0ABA7IW68)
Residues (chain): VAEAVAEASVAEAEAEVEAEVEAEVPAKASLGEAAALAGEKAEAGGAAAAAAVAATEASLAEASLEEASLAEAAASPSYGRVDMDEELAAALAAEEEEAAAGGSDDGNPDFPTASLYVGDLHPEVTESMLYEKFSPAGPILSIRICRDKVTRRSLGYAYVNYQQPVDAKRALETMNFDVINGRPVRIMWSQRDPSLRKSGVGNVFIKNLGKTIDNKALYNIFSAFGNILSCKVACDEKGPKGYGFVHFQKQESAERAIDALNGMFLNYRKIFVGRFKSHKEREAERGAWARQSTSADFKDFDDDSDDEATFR
The 7-mer Z-score of `GUCCGCA` is reported as -0.423.
`AAUCAGG` gave a 7-mer Z-score of 0.309.
The 7-mer Z-score of `ACUUUUA` is reported as -0.0047.
`UCUAGUU` has a 7-mer Z-score of -0.371.
`GACAGCC` gave a 7-mer Z-score of -0.151.
`GUUUCGG` gave a 7-mer Z-score of -0.441.
With `GACGUUA` the 7-mer Z-score was -0.182.
The 7-mer Z-score of `AAGUCGG` is reported as -0.00289.

Set 3 — effect on: binding; method: phage display NGS; form: peptide; concentration: concentration not given; setting: panning round 2; reference: input library
Target: UDP-N-acetylglucosamine--peptide N-acetylglucosaminyltransferase 110 kDa subunit (OGT, Homo sapiens, UniProt O15294)
Target sequence (O15294 1-1046): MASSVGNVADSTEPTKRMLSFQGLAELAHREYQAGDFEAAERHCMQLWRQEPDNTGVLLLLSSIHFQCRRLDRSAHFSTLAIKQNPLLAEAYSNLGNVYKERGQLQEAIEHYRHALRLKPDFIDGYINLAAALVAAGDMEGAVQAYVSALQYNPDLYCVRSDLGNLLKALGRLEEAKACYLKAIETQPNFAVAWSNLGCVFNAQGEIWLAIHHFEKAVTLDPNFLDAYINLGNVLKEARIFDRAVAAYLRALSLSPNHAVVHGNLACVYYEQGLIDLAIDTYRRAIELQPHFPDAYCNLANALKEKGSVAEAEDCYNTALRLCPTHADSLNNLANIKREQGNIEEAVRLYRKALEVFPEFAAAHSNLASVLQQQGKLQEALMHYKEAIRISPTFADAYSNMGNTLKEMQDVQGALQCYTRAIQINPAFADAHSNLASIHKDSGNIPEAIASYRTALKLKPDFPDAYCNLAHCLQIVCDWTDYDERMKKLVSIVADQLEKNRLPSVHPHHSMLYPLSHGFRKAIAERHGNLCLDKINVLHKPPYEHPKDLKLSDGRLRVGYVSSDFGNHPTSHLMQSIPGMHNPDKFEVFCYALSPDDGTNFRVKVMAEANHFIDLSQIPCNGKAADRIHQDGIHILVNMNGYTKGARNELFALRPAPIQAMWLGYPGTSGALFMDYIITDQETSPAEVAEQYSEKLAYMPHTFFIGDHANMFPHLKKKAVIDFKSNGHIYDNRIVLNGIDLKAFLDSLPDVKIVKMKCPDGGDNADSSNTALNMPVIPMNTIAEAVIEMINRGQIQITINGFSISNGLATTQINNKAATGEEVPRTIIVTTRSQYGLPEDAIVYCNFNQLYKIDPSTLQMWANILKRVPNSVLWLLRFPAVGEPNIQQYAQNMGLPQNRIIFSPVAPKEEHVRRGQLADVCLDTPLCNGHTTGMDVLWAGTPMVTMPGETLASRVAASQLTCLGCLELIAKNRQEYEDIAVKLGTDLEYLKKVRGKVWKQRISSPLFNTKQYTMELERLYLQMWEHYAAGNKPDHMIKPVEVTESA
`RFMPVYQMNVPEIDV`: “enrichment fold change” 10.
`HWQHVHHADPSDAVK`: “enrichment fold change” 9.4.
For `QDLMPYYPIQYYQER`, “enrichment fold change” read 16.
`MQEYSPGYQIQFSKP` — result for “enrichment fold change”: 7.66.
Under “enrichment fold change”, `VQAQFRPVYQIYSAP` is recorded as 4.44.
For `VMELQFLPHYQIEAF`, “enrichment fold change” read 9.9.
`YRHPPWDHHLDHHGR` — result for “enrichment fold change”: 5.49.
`YTPLRHPMHEHDHNH`: “enrichment fold change” 9.86.
`QSMGFSYPPAYLIKY`: “enrichment fold change” 4.79.
`SINYKLQPKYQIFFP` — result for “enrichment fold change”: 8.89.
`HQIPVLLHHSHTRNI`: “enrichment fold change” 6.15.
`EYTPEYQIHYQVVQS` — result for “enrichment fold change”: 17.7.
`QAQFMPVYQMQSMAR`: “enrichment fold change” 4.21.
`NLYRPQYQINFFDTI`: “enrichment fold change” 85.4.
`QYVPYYQIEVNSQPY`: “enrichment fold change” 5.24.
Under “enrichment fold change”, `SHMESHANNHHRAHW` is recorded as 5.03.

Mixed results
The GFP-positive cells of `CCCCCCOC(=O)N=C(N)c1ccc(NCc2nc3cc(C(=O)N(CCC(=O)OCC)c4ccccn4)ccc3n2C)cc1` is reported as 83.5% (HEK-293T; pseudovirus infection, FDA-approved drug library counter-screen; VSV pseudotyped with VSV-G; 10 µM, 16 h; reference: vehicle-treated).

Repeated from above (set 3):
`HWQHVHHADPSDAVK`: “enrichment fold change” 9.4.
For `QDLMPYYPIQYYQER`, “enrichment fold change” read 16.
`MQEYSPGYQIQFSKP` — result for “enrichment fold change”: 7.66.
Under “enrichment fold change”, `VQAQFRPVYQIYSAP` is recorded as 4.44.
For `VMELQFLPHYQIEAF`, “enrichment fold change” read 9.9.
